Values quoted from earlier work that unrelated publications cite.
Each numbered part shows a few of the values that one paper quotes.

Series 1 — organism: Toxoplasma gondii; read-out: parasite growth; concentration: concentration not given; setting: published screen; endpoint: activity class
c1cnc(N2CCN(Cc3ccc4c(c3)OCO4)CC2)nc1: inactive
CC1(C)O[C@@H]2[C@@H](CO[C@@]3(COS(N)(=O)=O)OC(C)(C)O[C@@H]23)O1: inactive
COc1cccc2c1C(=O)c1c(O)c3c(c(O)c1C2=O)C[C@@](O)(C(C)=O)C[C@@H]3O[C@H]1C[C@H](N)[C@H](O)[C@H](C)O1: inactive
NS(=O)(=O)Cc1noc2ccccc12: inactive
CC(C)NCC(O)COc1cccc2[nH]ccc12 (stereo not drawn): inactive

Other studies, line by line
O=C(NCc1ncc(C(F)(F)F)cc1Cl)c1ccc2c(c1)C1(CCS(=O)(=O)CC1)[C@@H](C1CC1)N2S(=O)(=O)c1ccc(F)cc1  IC50 (cannabinoid receptor CB1; radioligand binding): 3440 nM
CN(C)CC/C=C1/c2ccccc2Sc2ccc(Cl)cc21  mRNA fold change (MCF7; microarray, measured: BTG1; concentration not given; reference: DMSO): 2.34
CC(=O)N1CCC(c2ccc(C(=O)NC(=N)N)cc2C(F)(F)F)CC1  IC50 (SLC9A1; cellular activity): 31 nM
C=CC(=O)N1CCN(c2nc(=O)n(-c3c(C)ccnc3C(C)C)c3nc(-c4c(O)cccc4F)c(F)cc23)[C@@H](C)C1  IC50 (NCI-H358; measured: phospho-ERK; 2 h): 9 nM
CN(C)[C@@H]1CCN(c2cc(-c3ccccc3)nc3ccnn23)C1  EC50 (MRGPRX2; cellular activity): 740 nM
CCCCCCCCNC(C)C(O)c1ccc(SC(C)C)cc1 (stereo not drawn)  fold change (MCF7; microarray, Connectivity Map, measured: MAFF mRNA; concentration not given, 6 h; reference: DMSO): 14
CN(C)c1ncnc(-c2ccc3nc(Nc4cc(CN5CCN(C(=O)CC(F)(F)F)CC5)ccn4)[nH]c3c2)c1Cl  IC50 (IKBKE; low ATP): 1280 nM

For quick reference, copied from above (series 1):
NS(=O)(=O)Cc1noc2ccccc12: inactive
